Results gathered from unrelated publications.
Protocols differ between the studies behind these lines. Numbers after ± are the reported error.
SIRT2: NAD-dependent protein deacetylase sirtuin-2 (SIRT2, Homo sapiens, UniProt Q8IXJ6)
UniProt Q8IXJ6, sequence (whole entry, looked up): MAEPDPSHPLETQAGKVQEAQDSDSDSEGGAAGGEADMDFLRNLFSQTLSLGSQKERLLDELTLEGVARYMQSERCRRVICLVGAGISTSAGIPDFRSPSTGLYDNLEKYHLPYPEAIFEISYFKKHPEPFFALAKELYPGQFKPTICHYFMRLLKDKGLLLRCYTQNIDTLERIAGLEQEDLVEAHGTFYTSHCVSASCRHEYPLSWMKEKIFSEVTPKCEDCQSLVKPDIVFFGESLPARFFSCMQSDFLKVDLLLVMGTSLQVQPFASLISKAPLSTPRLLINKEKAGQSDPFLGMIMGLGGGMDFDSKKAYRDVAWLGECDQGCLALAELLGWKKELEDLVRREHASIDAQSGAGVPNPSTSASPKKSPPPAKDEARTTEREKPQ
lecA: PA-I galactophilic lectin (lecA, Pseudomonas aeruginosa, UniProt Q05097)
UniProt Q05097, sequence (whole entry, looked up): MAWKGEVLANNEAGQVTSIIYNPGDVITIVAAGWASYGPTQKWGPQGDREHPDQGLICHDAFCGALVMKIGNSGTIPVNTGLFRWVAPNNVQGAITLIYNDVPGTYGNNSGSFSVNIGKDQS
UniProt P10632, sequence (whole entry, looked up): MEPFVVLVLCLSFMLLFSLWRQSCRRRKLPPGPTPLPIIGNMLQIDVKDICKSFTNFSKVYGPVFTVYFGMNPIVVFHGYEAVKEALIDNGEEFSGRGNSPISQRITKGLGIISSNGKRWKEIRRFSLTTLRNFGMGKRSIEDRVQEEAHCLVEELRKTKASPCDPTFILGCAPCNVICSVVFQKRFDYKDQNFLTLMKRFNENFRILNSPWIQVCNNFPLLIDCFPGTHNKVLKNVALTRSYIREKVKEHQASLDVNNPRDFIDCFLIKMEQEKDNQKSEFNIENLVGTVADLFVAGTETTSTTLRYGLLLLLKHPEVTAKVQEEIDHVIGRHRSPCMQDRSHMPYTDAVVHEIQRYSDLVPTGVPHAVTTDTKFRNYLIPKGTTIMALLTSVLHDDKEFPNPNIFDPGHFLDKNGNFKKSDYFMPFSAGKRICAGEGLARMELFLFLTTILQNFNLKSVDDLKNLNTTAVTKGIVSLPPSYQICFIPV
UniProt P45984, sequence (whole entry, looked up): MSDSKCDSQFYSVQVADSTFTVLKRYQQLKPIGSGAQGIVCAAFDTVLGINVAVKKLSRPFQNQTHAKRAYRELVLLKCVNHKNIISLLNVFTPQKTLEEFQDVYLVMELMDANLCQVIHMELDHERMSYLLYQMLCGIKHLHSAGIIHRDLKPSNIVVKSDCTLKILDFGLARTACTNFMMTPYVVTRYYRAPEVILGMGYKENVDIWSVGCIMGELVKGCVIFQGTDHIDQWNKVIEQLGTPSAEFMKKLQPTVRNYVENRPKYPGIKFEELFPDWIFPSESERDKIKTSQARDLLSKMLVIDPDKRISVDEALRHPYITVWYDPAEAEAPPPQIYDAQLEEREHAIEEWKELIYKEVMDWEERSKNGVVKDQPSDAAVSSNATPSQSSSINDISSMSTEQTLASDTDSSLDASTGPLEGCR
UniProt P28074, sequence (whole entry, looked up): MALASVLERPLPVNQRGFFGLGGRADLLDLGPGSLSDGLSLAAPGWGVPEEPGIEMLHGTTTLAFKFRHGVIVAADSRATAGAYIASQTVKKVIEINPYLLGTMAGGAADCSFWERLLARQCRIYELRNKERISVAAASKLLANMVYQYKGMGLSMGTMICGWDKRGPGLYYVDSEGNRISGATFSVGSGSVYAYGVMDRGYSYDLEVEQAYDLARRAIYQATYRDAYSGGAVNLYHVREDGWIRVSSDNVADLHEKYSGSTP
UniProt P29376, sequence (whole entry, looked up): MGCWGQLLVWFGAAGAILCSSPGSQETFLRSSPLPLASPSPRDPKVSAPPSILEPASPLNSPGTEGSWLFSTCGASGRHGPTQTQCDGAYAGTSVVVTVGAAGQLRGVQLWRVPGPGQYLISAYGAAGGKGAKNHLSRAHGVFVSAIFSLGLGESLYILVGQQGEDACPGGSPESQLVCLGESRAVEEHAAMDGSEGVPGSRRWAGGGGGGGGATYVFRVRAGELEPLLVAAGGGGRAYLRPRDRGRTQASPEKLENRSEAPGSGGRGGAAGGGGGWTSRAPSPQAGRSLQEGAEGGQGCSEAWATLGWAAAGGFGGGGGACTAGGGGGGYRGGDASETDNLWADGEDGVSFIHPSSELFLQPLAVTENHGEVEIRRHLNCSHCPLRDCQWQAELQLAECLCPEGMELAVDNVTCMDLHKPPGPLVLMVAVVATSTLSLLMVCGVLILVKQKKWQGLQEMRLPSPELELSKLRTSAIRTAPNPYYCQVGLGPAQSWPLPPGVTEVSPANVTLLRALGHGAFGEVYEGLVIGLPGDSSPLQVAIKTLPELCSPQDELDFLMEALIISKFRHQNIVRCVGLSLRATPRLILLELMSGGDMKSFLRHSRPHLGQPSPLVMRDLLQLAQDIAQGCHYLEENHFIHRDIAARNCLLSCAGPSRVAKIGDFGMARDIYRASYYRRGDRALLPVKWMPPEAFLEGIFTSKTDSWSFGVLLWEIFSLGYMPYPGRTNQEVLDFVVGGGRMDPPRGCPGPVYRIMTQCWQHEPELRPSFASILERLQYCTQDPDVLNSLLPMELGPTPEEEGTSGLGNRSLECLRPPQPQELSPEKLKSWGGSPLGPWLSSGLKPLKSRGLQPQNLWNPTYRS
UniProt Q99873, sequence (whole entry, looked up): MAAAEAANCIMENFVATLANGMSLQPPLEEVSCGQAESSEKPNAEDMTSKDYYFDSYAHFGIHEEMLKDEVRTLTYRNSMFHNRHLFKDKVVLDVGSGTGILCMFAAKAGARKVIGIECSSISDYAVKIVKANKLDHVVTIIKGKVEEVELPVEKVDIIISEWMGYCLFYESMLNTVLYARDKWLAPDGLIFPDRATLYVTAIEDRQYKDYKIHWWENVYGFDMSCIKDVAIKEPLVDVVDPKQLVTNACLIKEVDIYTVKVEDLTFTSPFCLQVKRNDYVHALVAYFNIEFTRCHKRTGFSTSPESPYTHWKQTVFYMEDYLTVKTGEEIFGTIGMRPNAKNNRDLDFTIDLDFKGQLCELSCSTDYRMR
UniProt Q007T0, sequence (whole entry, looked up): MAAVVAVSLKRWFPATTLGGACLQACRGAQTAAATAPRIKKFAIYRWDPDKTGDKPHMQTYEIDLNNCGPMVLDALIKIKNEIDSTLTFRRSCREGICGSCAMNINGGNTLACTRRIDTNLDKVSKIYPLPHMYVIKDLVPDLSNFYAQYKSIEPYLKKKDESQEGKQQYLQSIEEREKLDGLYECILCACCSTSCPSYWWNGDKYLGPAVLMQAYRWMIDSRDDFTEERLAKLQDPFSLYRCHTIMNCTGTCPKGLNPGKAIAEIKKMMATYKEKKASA
UniProt Q0QF01, sequence (whole entry, looked up): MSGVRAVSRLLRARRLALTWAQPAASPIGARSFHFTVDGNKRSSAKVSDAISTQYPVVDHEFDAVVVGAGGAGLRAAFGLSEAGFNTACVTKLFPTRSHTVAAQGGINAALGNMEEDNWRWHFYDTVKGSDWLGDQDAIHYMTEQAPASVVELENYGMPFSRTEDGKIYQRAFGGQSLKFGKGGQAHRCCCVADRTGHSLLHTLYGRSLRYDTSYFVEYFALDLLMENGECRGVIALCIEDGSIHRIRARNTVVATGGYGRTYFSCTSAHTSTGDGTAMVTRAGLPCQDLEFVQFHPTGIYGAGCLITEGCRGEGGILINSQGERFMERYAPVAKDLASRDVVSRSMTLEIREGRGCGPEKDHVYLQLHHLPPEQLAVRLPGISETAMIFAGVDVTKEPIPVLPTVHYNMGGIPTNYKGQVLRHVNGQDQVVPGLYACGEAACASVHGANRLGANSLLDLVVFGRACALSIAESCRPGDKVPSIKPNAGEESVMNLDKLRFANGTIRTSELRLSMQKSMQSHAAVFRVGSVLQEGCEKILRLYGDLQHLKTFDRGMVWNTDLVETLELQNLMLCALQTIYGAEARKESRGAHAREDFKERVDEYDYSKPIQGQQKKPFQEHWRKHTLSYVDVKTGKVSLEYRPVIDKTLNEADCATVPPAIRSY
UniProt P0A7G6, sequence (whole entry, looked up): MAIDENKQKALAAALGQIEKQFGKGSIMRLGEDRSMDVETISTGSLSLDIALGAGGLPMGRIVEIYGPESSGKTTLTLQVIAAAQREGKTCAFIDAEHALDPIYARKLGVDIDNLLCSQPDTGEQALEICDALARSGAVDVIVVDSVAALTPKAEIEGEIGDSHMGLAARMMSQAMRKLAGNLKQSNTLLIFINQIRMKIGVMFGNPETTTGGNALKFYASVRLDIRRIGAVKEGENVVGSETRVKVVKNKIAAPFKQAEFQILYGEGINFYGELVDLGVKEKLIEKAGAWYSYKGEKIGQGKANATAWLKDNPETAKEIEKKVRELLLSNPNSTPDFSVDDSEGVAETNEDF
UniProt D0VWV4, sequence (whole entry, looked up): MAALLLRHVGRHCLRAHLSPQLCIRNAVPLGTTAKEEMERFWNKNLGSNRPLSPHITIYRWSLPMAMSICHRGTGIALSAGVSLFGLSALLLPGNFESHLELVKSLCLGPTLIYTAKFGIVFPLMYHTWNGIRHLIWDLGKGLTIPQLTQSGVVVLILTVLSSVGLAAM
UniProt A5GZW8, sequence (whole entry, looked up): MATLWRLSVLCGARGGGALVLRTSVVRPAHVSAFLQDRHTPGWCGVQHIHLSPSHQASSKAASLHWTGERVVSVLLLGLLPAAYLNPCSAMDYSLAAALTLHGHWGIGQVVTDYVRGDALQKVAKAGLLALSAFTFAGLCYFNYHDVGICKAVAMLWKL

| SMILES | target | test | test system | conditions | IC50 |
| --- | --- | --- | --- | --- | --- |
| CCCCCCCCCCCCCC(=S)NCCCC[C@H](NC(=O)[C@@H]1CCCN1)C(=O)N[C@@H](CCCCN)C(=O)N[C@H](C(=O)NCC(=O)O)[C@@H](C)O | SIRT2 | – | – | – | 1.9 µM |
| Cc1cc(C)nc(SC(C)C(=O)Nc2ncc(Cc3cccc4ccccc34)s2)n1 (stereo not drawn) | SIRT2 | enzyme activity, inhibitor, fluorescence | – | – | 0.26 µM |
| Cc1cc(C)cc(CSc2nc3cc(Cl)ccc3c(=O)n2CCSCCN)c1 | Protein RecA (recA, Escherichia coli, UniProt P0A7G6) | ATPase activity, inhibitor, phosphomolybdate blue | – | added: poly(dT) ssDNA | 11 µM |
| NC[C@H]1O[C@@H](c2cn([C@H]3[C@H](O)[C@@H](O)[C@H](n4cc([C@@H]5O[C@H](CN)[C@@H](n6cc(CO[C@@H]7O[C@H](CO)[C@H](O)[C@H](O)[C@H]7O)nn6)[C@H](O)[C@H]5O)nn4)O[C@@H]3CO)nn2)[C@H](O)[C@@H](O)[C@@H]1n1cc(CO[C@@H]2O[C@H](CO)[C@H](O)[C@H](O)[C@H]2O)nn1 | lecA | protein-protein interaction, inhibitor, ELISA | – | – | 0.019 µM |
| O=C(COCCCc1ccccc1)N[C@@H](Cc1cn(CCNC(=O)c2ccc(S[C@@H]3O[C@H](CO)[C@H](O)[C@H](O)[C@H]3O)cc2)nn1)C(=O)NCCO | lecA | ligand displacement, FP | – | – | 41.7 µM |
| Cc1cc(NC2CCN(C)CC2)ccc1-c1cc2c(N3CCC[C@H](C(=O)NCc4ccc(OC(F)(F)F)cc4)C3)ncnc2[nH]1 | LTK (Homo sapiens, UniProt P29376) | enzyme activity, inhibitor, mobility shift | – | – | 0.00042 µM |
| C=C(NC(=O)C(=C)NC(=O)c1csc(C2=NC3c4csc(n4)C4NC(=O)c5csc(n5)C(C(C)(O)C(C)O)NC(=O)C5CSC(=N5)C(=CC)NC(=O)C(C)NC(=O)c5csc(n5)C3(CC2)NC(=O)C(C)NC(=O)C(=C)NC(=O)C(C)NC(=O)C(C(C)CC)NC2C=Cc3c(C(C)O)cc(nc3C2O)C(=O)OC4C)n1)C(N)=O (stereo not drawn) | PSMB5 (Homo sapiens, UniProt P28074) | chymotrypsin-like activity, inhibitor | purified 20S proteasome | 15 min preincubation, 37 °C, added: Suc-Leu-Leu-Val-Tyr-AMC substrate | 0.57 ± 0.05 µM |
| C/C=C/C(=O)Nc1ccc2nc(NCCCCCN(C)C)nc(NCCCCCCN(C)C)c2c1 | TP53-binding protein 1, tandem tudor domain (Homo sapiens, UniProt Q12888) | methyl-lysine binding, TR-FRET | – | – | > 100 µM |
| N=C(NCCCC(N)C(N)=O)NCCSCC1OC(n2cnc3c(N)ncnc32)C(O)C1O (stereo not drawn) | PRMT1 (Homo sapiens, UniProt Q99873) | enzyme activity, inhibitor, fluorescence | – | – | 16 µM |
| O=C(Nc1ccccc1Nc1ccccc1)c1nccnc1Cl | Succinate dehydrogenase complex (Sus scrofa, UniProt A5GZW8+D0VWV4+Q007T0+Q0QF01) | enzyme activity, inhibitor, double-antibody sandwich ELISA | – | – | 11.2 µM |
| OC[C@H]1[C@@H](O)[C@@H](O)CN1Cc1ccc(Br)cc1 | Golgi alpha-mannosidase IIb (Drosophila melanogaster, UniProt Q9VF33) | inhibitor | – | added: p-nitrophenyl mannoside | 55 µM |
| CN(C)C(=O)C1CN1S(=O)(=O)c1ccc2cc(N(C)C)ccc2c1 (stereo not drawn) | PDIA3 (Homo sapiens, UniProt P30101) | enzyme activity, inhibitor, absorbance | – | pH 7.6 | 11.8 µM |
| O=C1c2oc3cc(O)c(O)cc3c2C(=O)c2oc3cc(O)c(O)cc3c21 | Cytochrome P450 2C8 (CYP2C8, Homo sapiens, UniProt P10632) | enzyme activity, inhibitor | human, liver microsomes | 1 h, pH 7.4 | 24.6 µM |
| CC(C)C[C@H](NC(=O)[C@H](CC(N)=O)NC(=O)[C@H](CC(C)C)NC(=O)[C@@H](NC(=O)[C@@H](NC(=O)[C@@H]1CCCN1C(=O)[C@H](CCCNC(=N)N)NC(=O)[C@H](CCCCN)NC(=O)[C@@H]1CCCN1C(=O)[C@H](CCCNC(=N)N)NC(=O)[C@@H]1CCCN1C(=O)[C@@H]1CCCN1C(=O)[C@H](CCCNC(=N)N)NC(=O)[C@H](CCCNC(=N)N)NC(=O)[C@H](CCCNC(=N)N)NC(=O)[C@H](CCC(N)=O)NC(=O)[C@H](CCCNC(=N)N)NC(=O)[C@H](CCCNC(=N)N)NC(=O)[C@H](CCCCN)NC(=O)[C@H](CCCCN)NC(=O)[C@H](CCCNC(=N)N)NC(=O)CN)[C@@H](C)O)[C@@H](C)O)C(=O)N[C@@H](Cc1ccccc1)C(=O)N1CCC[C@H]1C(=O)N[C@@H](CCC(N)=O)C(=O)N[C@H](C(=O)N1CCC[C@H]1C(=O)N[C@@H](CCCNC(=N)N)C(=O)N[C@@H](CO)C(=O)N[C@@H](CCC(N)=O)C(=O)N[C@@H](CC(=O)O)C(=O)N[C@H](C(N)=O)[C@@H](C)O)C(C)C | MAPK9 (Homo sapiens, UniProt P45984) | enzyme activity, inhibitor | – | – | 0.45 ± 0.04 µM |
| N[C@@H](Cc1c[nH]c2ccc(OCc3ccccc3-c3ccsc3)cc12)C(=O)O | SLC7A5 (Homo sapiens, UniProt Q01650) | transporter uptake, inhibitor, radiometric | – | – | 5.5 µM |

For quick reference, copied from above:
| SMILES | target | test | test system | conditions | IC50 |
| --- | --- | --- | --- | --- | --- |
| C=C(NC(=O)C(=C)NC(=O)c1csc(C2=NC3c4csc(n4)C4NC(=O)c5csc(n5)C(C(C)(O)C(C)O)NC(=O)C5CSC(=N5)C(=CC)NC(=O)C(C)NC(=O)c5csc(n5)C3(CC2)NC(=O)C(C)NC(=O)C(=C)NC(=O)C(C)NC(=O)C(C(C)CC)NC2C=Cc3c(C(C)O)cc(nc3C2O)C(=O)OC4C)n1)C(N)=O (stereo not drawn) | PSMB5 (Homo sapiens, UniProt P28074) | chymotrypsin-like activity, inhibitor | purified 20S proteasome | 15 min preincubation, 37 °C, added: Suc-Leu-Leu-Val-Tyr-AMC substrate | 0.57 ± 0.05 µM |
